Assay results gathered from unrelated publications.
Compare with care: the assays were run in different laboratories. “And” joins repeats or separate records; there may be more than shown. Numbers after ± are the reported error.

| SMILES | organism | assay | system | conditions | inhibition |
| --- | --- | --- | --- | --- | --- |
| COC[C@H]1O[C@@H]2O[C@@H]3[C@@H](OC)[C@@H](OC)[C@@H](O[C@@H]4[C@@H](OC)[C@@H](OC)[C@@H](O[C@@H]5[C@@H](OC)[C@@H](OC)[C@@H](O[C@@H]6[C@@H](OC)[C@@H](OC)[C@@H](O[C@@H]7[C@@H](OC)[C@@H](OC)[C@@H](O[C@@H]1[C@@H](OC)[C@H]2OC)O[C@@H]7COC)O[C@@H]6COC)O[C@@H]5COC)O[C@@H]4COC)O[C@@H]3COC | Escherichia coli | LuxR reporter, antagonist | DH5α sensor strain | 40 µM, with: OHHL 200 nM | 0 ± 1% |
| O=c1[nH]c2ncsc2c(=O)n1O | Echinochloa crus-galli | glasshouse pot |  | 1500 g/ha, 21 days, post-emergence | 36.4% |
| c1ccc(CSc2nc3ccc(-c4ccccc4)cc3cc2CNCc2ccc(CN3CCCC3)cc2)cc1 | Acinetobacter baumannii | NADH-driven proton pumping, ACMA quenching | inverted membrane vesicles | 32 µg/mL | 95% |
| CCc1nc2[nH]c(=O)n(O)c(=O)c2s1 | Echinochloa crus-galli | glasshouse pot |  | 750 g/ha, 21 days, post-emergence | 0% |
| Cc1cc(OC(C)C)ccc1C(=O)C(C)(C)NC(=O)c1sccc1C | Botrytis cinerea | mycelial growth | B05.10 | 0.01 µg/mL | 69.4 ± 5% |
| Cc1nc2[nH]c(=O)n(O)c(=O)c2s1 | Echinochloa crus-galli | glasshouse pot |  | 1500 g/ha, 21 days, post-emergence | 21.7% |
| CN1CCN(CCNCc2cc3cc(-c4ccccc4)ccc3nc2SCc2ccccc2)CC1 | Acinetobacter baumannii | NADH-driven proton pumping, ACMA quenching | inverted membrane vesicles | 2 µg/mL | 8% |
| COC[C@H]1O[C@@H]2O[C@H]3[C@H](OC)[C@@H](OC)[C@@H](O[C@H]4[C@H](OC)[C@@H](OC)[C@@H](O[C@H]5[C@H](OC)[C@@H](OC)[C@@H](O[C@H]6[C@H](OC)[C@@H](OC)[C@@H](O[C@H]7[C@H](OC)[C@@H](OC)[C@@H](O[C@H]8[C@H](OC)[C@@H](OC)[C@@H](O[C@H]1[C@H](OC)[C@H]2OC)O[C@@H]8COC)O[C@@H]7COC)O[C@@H]6COC)O[C@@H]5COC)O[C@@H]4COC)O[C@@H]3COC | Escherichia coli | LuxR reporter, antagonist | DH5α sensor strain | 10 µM, with: OHHL 200 nM | -2 ± 2% |
| c1ccc(CSc2nc3ccccc3cc2CNCc2ccc(CN3CCCC3)cc2)cc1 | Acinetobacter baumannii | NADH-driven proton pumping, ACMA quenching | inverted membrane vesicles | 32 µg/mL | 90% |
| CCc1nn(C)c2nc(-c3ccc(C(=O)O)cc3)nc(NCc3ccc(F)cc3)c12 | Cryptosporidium parvum | parasite growth, immunofluorescence imaging | HCT-8, Iowa | 6 µM | 85.1% and 88.6% |
